Experimental data collected from several papers.
“And” joins repeats or separate records; there may be more than shown.

SMILES	tested on	assay	test system	conditions	scale	quantity	value
Cn1ncc2cc(-c3cncc(Cl)c3N3CCC4(CCNC4=O)CC3)ccc21	LS174T	gene expression, microarray, measured: DDIT4 mRNA		concentration not given, 24 h	relative to: untreated cells	log2 fold change	2.94
CCOc1cncc(-c2ccc(NC(=O)C3(c4ccnc(NS(=O)(=O)C5CC5)n4)CCOCC3)nc2)n1	RCH-ACV	cell proliferation, CellTiter-Glo		72 h, lymphoid haematological cancer		IC50	24 nM
CCN(CC)CC(=O)Nc1cccc(-n2cc(-c3ccc4ccc(-c5cn(-c6cccc(NC(=O)CN(CC)CC)c6)nn5)cc4c3)nn2)c1	RCC4	PCR angiogenesis array, measured: GAPDH		5 x IC50, 2 h, normoxia	relative to: untreated	fold regulation	-1.01 fold
Cc1ccc(C(=O)c2c(NC(=O)c3ccncc3)sc3c2CCCC3)cc1	Trypanosoma cruzi	reporter mRNA translation, inhibitor, measured: capped polyadenylated Renilla luciferase mRNA	cell-free extract	concentration not given	relative to: control RNA	relative translation	106%
Cc1ncsc1-c1ccc(C(C)NC(=O)C2CC(O)CN2C(=O)C(NC(=O)CCCCCCCCCCN2CCCC(Nc3ncc(Cl)c(Nc4ccccc4S(=O)(=O)C(C)C)n3)C2)C(C)(C)C)cc1 (centres unmarked)	22Rv1	RNA-seq, measured: WNT2B mRNA		concentration not given	relative to: DMSO	log2 fold change	-1.5
Nc1nc2nn[nH]c2c(=O)[nH]1	Trypanosoma cruzi	reporter mRNA translation, inhibitor, measured: capped polyadenylated Renilla luciferase mRNA	cell-free extract	concentration not given	relative to: control RNA	relative translation	93.3%
CNS(=O)(=O)Nc1nccc(Cc2c(C)c3ccc(Oc4ncccc4F)cc3oc2=O)c1F	SU.86.86	cell viability		7 days		IC50	> 1000 nM
COc1ccccc1-c1ccncc1C(=O)Nc1nnc(OCc2ccc(Cl)cc2)s1	DLD-1 parental			0.06 µM, mean of replicates		colony count	81.5 and 79.5 and 66.5
CN1CCCNC(=O)c2cccc(c2)C(=O)NCCCN(C)CCCNc2cccc3c2C(=O)c2cccc(c2C3=O)NCCC1	SAS	RNA-Seq, measured: CAPN10 mRNA		1 µM, 6 h	relative to: untreated cells	log2 fold change	-1.36
CO[C@@H]1[C@@H](OC(N)=O)[C@@H](O)[C@H](Oc2ccc3c(O)c(NC(=O)c4ccc(O)c(CC=C(C)C)c4)c(=O)oc3c2C)OC1(C)C	DLD-1 parental			300 µM	relative to: untreated	colony survival	0.12%
CC(C)c1ccc(N(C)c2ccc3c(c2)OCC[C@H]3CNc2cnccc2C(=O)O)cc1	Kasumi 1	cell growth or viability, ATP luminescence		7 days		IC50	≥ 10000 nM
